Results from different studies.
Numbered parts are unrelated; each lists some results of a single study.
Sequence of UniProt Q92985 (whole entry, unmodified, looked up): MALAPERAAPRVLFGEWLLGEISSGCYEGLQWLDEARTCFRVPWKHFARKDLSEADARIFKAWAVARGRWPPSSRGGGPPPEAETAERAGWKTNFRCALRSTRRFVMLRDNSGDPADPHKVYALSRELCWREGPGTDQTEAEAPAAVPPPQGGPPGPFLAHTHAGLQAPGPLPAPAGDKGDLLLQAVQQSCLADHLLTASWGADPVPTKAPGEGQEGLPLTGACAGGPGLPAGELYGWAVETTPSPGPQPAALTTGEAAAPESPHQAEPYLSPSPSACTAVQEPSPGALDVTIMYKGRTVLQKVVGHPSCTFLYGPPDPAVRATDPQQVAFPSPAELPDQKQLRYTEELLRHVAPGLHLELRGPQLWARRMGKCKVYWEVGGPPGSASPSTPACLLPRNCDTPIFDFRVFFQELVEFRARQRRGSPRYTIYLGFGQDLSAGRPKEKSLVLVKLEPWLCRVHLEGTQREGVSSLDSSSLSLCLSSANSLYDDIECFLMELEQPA

Study 1 — technique: aptamer microarray, sandwich; molecule type: DNA with 2'F-ANA; medium: in vitro; tested at: 200 nM; added: Cy3 exosite-II aptamer, 400 nM; reading: higher = stronger binding
Target: Prothrombin, mature alpha-thrombin (F2, Homo sapiens, UniProt P00734)
Notes: whole 15-mer aptamer, many near background
For `GGTTGGTGTGGTTGG (2'F-ANA at 3 9 12 14 15)`, “mean fluorescence intensity” read 661 a.u.
`GGTTGGTGTGGTTGG (2'F-ANA at 8 9 10 11 15)` — result for “mean fluorescence intensity”: 162 a.u.
`GGTTGGTGTGGTTGG (2'F-ANA at 1 2 3 6 9 12 13 15)` — result for “mean fluorescence intensity”: 330 a.u.

Study 2 — technique: protein binding microarray; molecule type: double-stranded DNA, one strand shown; medium: in vitro; tested at: not given; reference: not given; reading: higher = stronger binding
Target: Histone acetyltransferase KAT6A, both winged helices, GST fusion (KAT6A, Homo sapiens, UniProt Q92794, residues 1-181)
Notes: 8-mer, flanks averaged, mean of 2 arrays, mostly near background
Target sequence (chain): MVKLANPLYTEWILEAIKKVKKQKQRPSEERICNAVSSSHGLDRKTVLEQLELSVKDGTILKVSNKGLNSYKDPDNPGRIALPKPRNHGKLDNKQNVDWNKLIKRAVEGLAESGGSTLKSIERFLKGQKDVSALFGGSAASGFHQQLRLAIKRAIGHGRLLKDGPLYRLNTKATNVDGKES
`CAGTCGGG` gave an E-score of 0.138.
With `AAGTAGAC` the E-score was -0.176.
With `GCAGCCTA` the E-score was -0.144.

Single results of other studies
IRF5 S451D/S453D/S456D/S462D full length, phosphomimetic: Interferon regulatory factor 5, full length, phosphomimetic (IRF5, Homo sapiens, UniProt Q13568-2, residues 1-514, S451D/S453D/S456D/S462D)
For `GCCTAGCACGCCGGACTGCTTTTCCTGACGTGCTAGGTCTTGATTCGCTTGACGCTGCTG`, “fitted relative affinity” read -0.361 z-score (IRF5 S451D/S453D/S456D/S462D full length, phosphomimetic; protein-binding microarray; double-stranded DNA, one strand shown, in vitro; 940 nM top, 60-bp whole probe, added: salmon DNA 0.4 mg/ml; reference: random background probes, higher = stronger binding).
For `PhoQ, residues 284 288 289 292 302 303 TYGVAM`, the fold induction was 23.7 (PhoP, residues 12 14 15 18 19 TQAML (Escherichia coli, UniProt P23836); Sort-seq, measured: YFP reporter; E. coli; PhoQ-PhoP variant library, added: 10 µM Mg2+; reference: high Mg2+ state, higher = stronger signaling).
`GCCTAGCACTTAGGACTGGACTTTCGGTGAGTGCTAGTCTTGATTCGCTTGACGCTGCTG` has a log fluorescence of -0.543 z-score (Interferon regulatory factor 7, full length, phosphomimetic (IRF7, Homo sapiens, UniProt Q92985, residues 1-503, S101K/S471D/S472D/S475D/S476D/S477D/S483D/S484D/S487D); protein-binding microarray; double-stranded DNA, one strand shown, in vitro; 250 nM, 60-bp whole probe, added: salmon DNA 0.4 mg/ml; reference: random background probes, higher = stronger binding).
Under “fitted relative affinity”, `GCCTAGCACTTTGGACTGGGACTGGGTTAGTGCTAGGTCTTGATTCGCTTGACGCTGCTG` is recorded as -0.327 z-score (IRF5 S451D/S453D/S456D/S462D full length, phosphomimetic; protein-binding microarray; double-stranded DNA, one strand shown, in vitro; 940 nM top, 60-bp whole probe, added: salmon DNA 0.4 mg/ml; reference: random background probes, higher = stronger binding).
